Published values from different studies.
Protocols differ between the studies behind these lines.
UniProt O75582, sequence (whole entry, looked up): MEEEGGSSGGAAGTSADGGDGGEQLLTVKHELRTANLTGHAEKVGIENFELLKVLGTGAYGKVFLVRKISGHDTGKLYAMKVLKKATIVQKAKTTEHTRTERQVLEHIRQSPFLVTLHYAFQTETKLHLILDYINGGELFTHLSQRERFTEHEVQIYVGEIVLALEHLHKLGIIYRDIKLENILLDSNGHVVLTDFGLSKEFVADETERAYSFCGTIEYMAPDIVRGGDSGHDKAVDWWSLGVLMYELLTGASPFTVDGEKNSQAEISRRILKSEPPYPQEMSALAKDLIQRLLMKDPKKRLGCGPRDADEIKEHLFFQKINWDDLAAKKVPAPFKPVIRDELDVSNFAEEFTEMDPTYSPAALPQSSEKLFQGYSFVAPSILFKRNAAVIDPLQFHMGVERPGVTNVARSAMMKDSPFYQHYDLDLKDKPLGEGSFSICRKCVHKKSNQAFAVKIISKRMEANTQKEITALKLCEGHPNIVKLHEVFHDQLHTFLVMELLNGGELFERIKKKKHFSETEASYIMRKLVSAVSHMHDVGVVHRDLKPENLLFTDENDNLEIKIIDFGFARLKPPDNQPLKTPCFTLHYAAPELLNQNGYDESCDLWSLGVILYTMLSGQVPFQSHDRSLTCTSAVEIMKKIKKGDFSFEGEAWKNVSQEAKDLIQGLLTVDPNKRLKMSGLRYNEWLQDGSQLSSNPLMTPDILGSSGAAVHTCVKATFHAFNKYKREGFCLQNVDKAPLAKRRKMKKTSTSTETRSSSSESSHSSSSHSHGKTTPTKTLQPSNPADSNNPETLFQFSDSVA

Cc1nc(-c2cnc(NC(C)C)n(C)c2=O)ccc1Oc1ccnc(-c2cnn(C)c2)c1
AUC(0-t) (male beagle dog, plasma; intravenous, 1 mg/kg): 7040 ng·h/mL

Cc1c(C(=O)O)ccc2c3n(nc12)[C@@H]1[C@H](C3)N(CC2CC2)[C@@]2(C(=O)Nc3cc(Cl)ccc32)[C@H]1c1cccc(Cl)c1F
AUC(0-inf) (male dog, plasma; oral, 2 mg/kg): 15.8 µM·h

CC1(C)CCC(c2ccc(Cl)cc2)=C(CN2CCN(c3ccc(C(=O)NS(=O)(=O)c4ccc(N[C@H](CCN5CCOCC5)CSc5ccccc5)c(S(=O)(=O)C(F)(F)F)c4)cc3)CC2)C1
AUC(0-t) (male beagle dog, plasma; oral, 25 mg/kg, single dose): 295000 ng·h/mL

N#C[C@@]1(c2ccc3c(N)ncnn23)O[C@H](CO)[C@@H](O)[C@H]1O
AUC(0-t) (dog, plasma; oral, 5 mg/kg): 61.5 µM·h

CC1(C)CCC(CN2CCN(c3ccc(C(=O)NS(=O)(=O)c4ccc(NCC5CCOCC5)c([N+](=O)[O-])c4)c(Oc4cnc5[nH]ccc5c4)c3)CC2)=C(c2ccc(Cl)cc2)C1
AUC(0-t) (male beagle dog, plasma; oral, 25 mg/kg, single dose): 145000 ng·h/mL

CNc1ncc2c(/C=C/C(=O)N3CCC(OC)CC3)nn(Cc3cccc(C(F)(F)F)c3)c2n1
remaining activity (Ribosomal protein S6 kinase alpha-5 (RPS6KA5, Homo sapiens, UniProt O75582); enzyme activity, inhibitor, radiometric; 1 µM): 99%

O=C1CC[C@H](N2Cc3c(ccc4c3OCC43CCN(C[C@@H]4CCC5(CCN(c6ccc([C@@H]7c8ccc(O)cc8CC[C@@H]7c7ccccc7)cc6)CC5)OC4)CC3)C2=O)C(=O)N1
AUC(0-inf) (beagle dog, plasma; oral, 3 mg/kg): 15100 ng·h/mL

COc1cc2c3c(n(CCCN4CCOCC4)c(=O)c2cc1OC)-c1cc2c(cc1C3=O)OCO2
AUC(0-inf) (female beagle dog, plasma; intravenous, 50 mg/m², infusion): 1110 ng·h/mL

COc1ccc(C[C@@H](C)[C@@H](C)Cc2ccc(OC)c(OC)c2)cc1OC
AUC(0-t) (male beagle dog, plasma; oral, 100 mg/kg/day, multiple doses, once daily): 10300 ng·h/mL

For quick reference, copied from above:
COc1cc2c3c(n(CCCN4CCOCC4)c(=O)c2cc1OC)-c1cc2c(cc1C3=O)OCO2
AUC(0-inf) (female beagle dog, plasma; intravenous, 50 mg/m², infusion): 1110 ng·h/mL
